Assay results gathered from unrelated publications.
Lines come from different studies, so protocols differ. ± marks the error that the study gave.
Cell line: Caco-2

`CC(C)NCC(O)COc1cccc2ccccc12` (stereo not shown) — result for “apparent permeability A-B”: 65 ×10⁻⁶ cm/s (human plasma; pH 7.4, corrected for plasma protein binding).
The recovery of `CC(C)CC(=O)OC[C@H]1O[C@@](C#N)(c2ccc3c(N)ncnn23)[C@H](O)[C@@H]1O` is reported as 99% (bidirectional permeability; 9 µM, 120 min; basolateral to apical).
`COc1nc(NCc2cn(-c3ccc(C(=O)Nc4ccc(C(F)(F)F)cc4)cc3)nn2)nc(OC)n1` gave a selectivity ratio of 0.44 (MTT; baseline: normal rat colonocytes over Caco-2).
`Cc1ncc2n1-c1ccc(Cl)cc1C(c1ccccc1F)=NC2` has an apparent permeability of 20.7 ×10⁻⁶ cm/s (Caco-2 barrier apical to basolateral).
For `C/C=C1/CN2CC[C@]34C(=Nc5ccccc53)[C@@H]2C[C@@H]1C4(COC(C)=O)C(=O)OC` (stereo partly shown), the efflux ratio was 1 (baseline: B-A over A-B).
`CC(C)C[C@H](NC(=O)[C@H](Cc1ccccc1)NC(=O)[C@H](CC(C)C)NC(=O)[C@H](CC(C)C)NC(=O)[C@H](CC(C)C)NC(=O)[C@@H](N)CCCNC(=N)N)C(=O)N[C@@H](CCCNC(=N)N)C(=O)N[C@@H](CCCNC(=N)N)C(=O)N[C@@H](CS)C(=O)NCC(=O)N[C@@H](CCCNC(=N)N)C(=O)O` — result for cytotoxicity: “not toxic” (MTT; concentration not given, 24 h).
`CC[C@H](C)[C@H](NC(=O)[C@@H](N)CC(N)=O)C(=O)N1CCC[C@H]1C(=O)N1CCC[C@H]1C(=O)N[C@@H](CC(C)C)C(=O)N[C@H](C(=O)N[C@@H](CCC(N)=O)C(=O)N[C@H](C(=O)N1CCC[C@H]1C(=O)N[C@H](C(=O)N[C@H](C(=O)N[C@H](C(=O)N1CCC[C@H]1C(=O)N1CCC[C@H]1C(=O)N[C@@H](Cc1ccccc1)C(=O)N[C@@H](CC(C)C)C(=O)N[C@@H](CCC(N)=O)C(=O)N1CCC[C@H]1C(=O)N[C@@H](CCC(=O)O)C(=O)O)C(C)C)C(C)C)C(C)C)[C@@H](C)O)[C@@H](C)O` has a Papp of 1.22 ×10⁻⁶ cm/s (10 µM, 60 min, apical to basal).
With `CC(C)NCC(O)COc1cccc2ccccc12` (stereo not shown) the Papp was over 5 ×10⁻⁶ cm/s (10 µM, 2 h, pH 7.4).
For `C[C@@H]1O[C@@H](OC[C@H]2O[C@@H](Oc3c(-c4ccc(O)c(O)c4)oc4cc(O)cc(O)c4c3=O)[C@H](O)[C@@H](O)[C@@H]2O)[C@H](O)[C@H](O)[C@H]1O`, the viability was 103% (CCK-8; 10 µM, 24 h).
The CC50 of `CC(C)C[C@H](NC(=O)OCc1ccccc1)C(=O)N[C@@H](CC(C)C)C(=O)N[C@@H](CC1CCNC1=O)C(=O)C(=O)NC1CC1` (stereo partly shown) is reported as 140 ± 14.4 µM (5 (unit not given)).
The CC50 of `CC(C)C[C@H](NC(=O)OCc1ccccc1)C(=O)N[C@H](C=O)C[C@@H]1CCCNC1=O` is reported as over 100 µM (cytotoxicity).
`C/C=C1/CN2CC[C@@]34c5cc(O)ccc5N(C)[C@]35OC[C@@]4(C(=O)OC)[C@H]1C[C@H]25` gave a Papp of over 5 ×10⁻⁶ cm/s (10 µM, 2 h, pH 7.4).
For `CC(C)[C@H]1C(=O)N[C@@H](CCCN=C(N)N)C(=O)NCC(=O)N[C@@H](CC(=O)O)C(=O)N[C@H](Cc2ccccc2)C(=O)N1C`, the efflux ratio was 1.4 (20 µM; baseline: Papp B-A over Papp A-B).
The viability of `NC(=O)CC[C@H](NC(=O)[C@@H]1CCCN1C(=O)[C@H](CCC(N)=O)NC(=O)[C@@H]1CCCN1C(=O)[C@@H](N)Cc1ccc(O)cc1)C(=O)O` is reported as 92.1% (CCK-8; 25 µM).
`C[C@@H](NC(=O)[C@@H](C)NC(=O)[C@H](CCCCNC(=O)c1ccc(S(=O)(=O)F)cc1)NC(=O)c1ccc(S(=O)(=O)F)cc1)C(=O)O` has a Papp of under 1 ×10⁻⁶ cm/s (10 µM).
`O=c1cc(-c2ccc(O)cc2)oc2c([C@@H]3O[C@H](CO)[C@@H](O)[C@H](O)[C@H]3O)c(O)cc(O)c12` gave a viability of 105% (CCK-8; 20 µM, 24 h).
With `O=C(CCCN1CCC2(CC1)C(=O)NCN2c1ccccc1)N(CC1CCCCC1)c1ccccc1` the recovery was 69% (Caco-2 permeability; time not given, basolateral to apical).
`O=c1c(O[C@@H]2O[C@H](CO)[C@H](O)[C@H](O)[C@H]2O)c(-c2ccc(O)c(O)c2)oc2cc(O)cc(O)c12` has a viability of 105% (CCK-8; 0.625 µM, 24 h).
`C[C@]12CC[C@H]3[C@@H](CCC4=CC(=O)CC[C@@]43C)[C@@H]1CC[C@@H]2O` has a mass balance of 94.2 ± 3.6% (60 min, basolateral to apical).

For quick reference, copied from above:
`CC[C@H](C)[C@H](NC(=O)[C@@H](N)CC(N)=O)C(=O)N1CCC[C@H]1C(=O)N1CCC[C@H]1C(=O)N[C@@H](CC(C)C)C(=O)N[C@H](C(=O)N[C@@H](CCC(N)=O)C(=O)N[C@H](C(=O)N1CCC[C@H]1C(=O)N[C@H](C(=O)N[C@H](C(=O)N[C@H](C(=O)N1CCC[C@H]1C(=O)N1CCC[C@H]1C(=O)N[C@@H](Cc1ccccc1)C(=O)N[C@@H](CC(C)C)C(=O)N[C@@H](CCC(N)=O)C(=O)N1CCC[C@H]1C(=O)N[C@@H](CCC(=O)O)C(=O)O)C(C)C)C(C)C)C(C)C)[C@@H](C)O)[C@@H](C)O` has a Papp of 1.22 ×10⁻⁶ cm/s (10 µM, 60 min, apical to basal).
